Published values of several laboratories.
Each line is one published result; not all experiments were run side by side. Several values in a cell are separate wells, animals, samples, runs or records. ≈ marks a conversion by molar mass, not a printed value.

Cc1ncsc1-c1ccc(C(C)NC(=O)C2CC(O)CN2C(=O)C(NC(=O)CCCCCCCCCCN2CCCC(Nc3ncc(Cl)c(Nc4ccccc4S(=O)(=O)C(C)C)n3)C2)C(C)(C)C)cc1 (stereo not shown) — log2 fold change (22Rv1; RNA-seq, refers to: ZNF549 mRNA; concentration not given; baseline: DMSO): -1.23
CC(C)c1ccc(N(C)c2ccc3c(c2)OCC[C@H]3CNc2cnccc2C(=O)O)cc1 — IC50 (MC116; cell viability, CellTiter-Glo; 7 days): 4.61 nM
CN1CCCNC(=O)c2cccc(c2)C(=O)NCCCN(C)CCCNc2cccc3c2C(=O)c2cccc(c2C3=O)NCCC1 — log2 fold change (SAS; RNA-Seq, refers to: SLC9A1 mRNA; 1 µM, 6 h; baseline: untreated cells): -0.962
Cc1ccc(SCCOCCN2CC(C)OC(C)C2)cc1.Cl (stereo not shown) — translation activity (Trypanosoma cruzi; reporter mRNA translation, inhibitor, refers to: Renilla luciferase mRNA; cell-free extract; concentration not given, test 1; baseline: positive over negative control): 99% and 102%
Nc1ncc(-c2cc(-c3cnn(CC(F)(F)F)c3)ncc2F)nc1C(=O)NC1CNCC(F)C1 (stereo not shown) — remaining binding (DRAK1; KINOMEscan; 1 µM; baseline: DMSO control): 11%
O=C(C1CCCN(Cc2ccc(Cl)cc2)C1)N1CCCCC1.O=C(O)C(=O)O (stereo not shown) — translation activity (Trypanosoma cruzi; reporter mRNA translation, inhibitor, refers to: Renilla luciferase mRNA; cell-free extract; concentration not given, test 1; baseline: positive over negative control): 106% and 91.8%
C=CC(=O)Nc1cccc(Cn2ncc3cnc(Nc4cnn(CCOC)c4)nc32)c1 — percent of control (CSNK2A1 human; binding, KINOMEscan; 100 nM; lower = stronger binding): 70%
C=C(NC(=O)c1csc(-c2nc3c(cc2O)-c2nc(cs2)C(=O)NC(C(C)O)C(=O)NC(=C(C)OC)c2nc(cs2)C(=O)NC2c4nc(cs4)C(=O)NC(COC(=O)c4c5c6c(cccc6n4O)COC(=O)C(OC4CC(C)(O)C(N(C)C)C(C)O4)C2OC5)c2nc-3cs2)n1)C(N)=O (stereo not shown) — MIC50 (Enterococcus faecalis; vancomycin-intermediate, 10 isolates; serum 25%): 0.0312 µg/mL (≈ 0.0217 µM)
CNS(=O)(=O)Nc1nccc(Cc2c(C)c3ccc(Oc4ncccc4F)cc3oc2=O)c1F — IC50 (U266B1; cell viability, CellTiter-Glo; 7 days): > 1000 nM
COC1CN([C@H]2CC[C@H]([C@@]3(C)Oc4c(Cl)cc(C(=O)NCc5c(SC)cc(C)[nH]c5=O)c(C)c4O3)CC2)C1 — log2 fold change (RNA-seq, refers to: MEIS1; human, whole blood; dose not given, 24 h; baseline: pretreatment baseline): 3.7
